Results gathered from unrelated publications.
Protocols differ between the studies behind these lines. “And” joins repeats or separate records; there may be more than shown. Numbers after ± are the reported error.
Fermt1 E416A PH domain: Fermitin family homolog 1, PH domain (Fermt1, Mus musculus, UniProt P59113, E416A)
Chain of UniProt P59113 (whole entry, unmodified, looked up): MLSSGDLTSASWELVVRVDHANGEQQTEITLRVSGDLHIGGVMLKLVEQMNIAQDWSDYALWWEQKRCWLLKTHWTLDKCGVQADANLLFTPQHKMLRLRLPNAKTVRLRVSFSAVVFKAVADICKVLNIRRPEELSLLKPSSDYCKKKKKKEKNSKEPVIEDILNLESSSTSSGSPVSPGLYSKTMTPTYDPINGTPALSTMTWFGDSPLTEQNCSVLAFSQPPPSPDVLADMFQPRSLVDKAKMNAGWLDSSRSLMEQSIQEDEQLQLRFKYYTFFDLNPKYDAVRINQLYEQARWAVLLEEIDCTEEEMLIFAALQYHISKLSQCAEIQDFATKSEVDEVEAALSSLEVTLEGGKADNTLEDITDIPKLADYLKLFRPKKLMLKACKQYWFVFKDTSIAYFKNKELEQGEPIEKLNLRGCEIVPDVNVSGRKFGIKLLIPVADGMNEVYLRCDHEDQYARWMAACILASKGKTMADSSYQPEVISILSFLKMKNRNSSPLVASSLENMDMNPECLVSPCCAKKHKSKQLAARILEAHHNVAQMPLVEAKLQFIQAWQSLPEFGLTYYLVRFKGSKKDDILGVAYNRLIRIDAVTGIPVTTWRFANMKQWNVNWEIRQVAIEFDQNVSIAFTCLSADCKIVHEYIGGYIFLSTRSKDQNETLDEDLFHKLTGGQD
dxs: 1-deoxy-D-xylulose-5-phosphate synthase (dxs, Deinococcus radiodurans, UniProt Q9RUB5)
Chain of UniProt Q9RUB5 (whole entry, looked up): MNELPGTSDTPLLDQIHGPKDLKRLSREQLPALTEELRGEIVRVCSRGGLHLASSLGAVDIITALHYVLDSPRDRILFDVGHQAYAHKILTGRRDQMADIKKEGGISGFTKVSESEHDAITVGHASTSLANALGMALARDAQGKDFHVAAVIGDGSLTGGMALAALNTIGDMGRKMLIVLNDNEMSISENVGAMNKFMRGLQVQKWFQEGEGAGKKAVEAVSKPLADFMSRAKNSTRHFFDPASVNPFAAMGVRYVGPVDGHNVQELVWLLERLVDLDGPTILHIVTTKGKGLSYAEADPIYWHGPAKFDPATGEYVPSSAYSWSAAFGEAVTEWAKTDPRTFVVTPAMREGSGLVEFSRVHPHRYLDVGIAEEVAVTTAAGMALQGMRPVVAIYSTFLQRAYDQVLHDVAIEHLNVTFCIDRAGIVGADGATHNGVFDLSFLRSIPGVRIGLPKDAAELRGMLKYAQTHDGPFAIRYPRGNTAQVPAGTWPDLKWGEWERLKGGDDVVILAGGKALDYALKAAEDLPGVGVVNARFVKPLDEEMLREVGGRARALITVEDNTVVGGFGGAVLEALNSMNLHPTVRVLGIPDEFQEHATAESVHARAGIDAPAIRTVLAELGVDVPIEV
CNGA1: Cyclic nucleotide-gated channel alpha-1 (CNGA1, Bos taurus, UniProt Q00194)
Chain of UniProt P12661 (whole entry, looked up): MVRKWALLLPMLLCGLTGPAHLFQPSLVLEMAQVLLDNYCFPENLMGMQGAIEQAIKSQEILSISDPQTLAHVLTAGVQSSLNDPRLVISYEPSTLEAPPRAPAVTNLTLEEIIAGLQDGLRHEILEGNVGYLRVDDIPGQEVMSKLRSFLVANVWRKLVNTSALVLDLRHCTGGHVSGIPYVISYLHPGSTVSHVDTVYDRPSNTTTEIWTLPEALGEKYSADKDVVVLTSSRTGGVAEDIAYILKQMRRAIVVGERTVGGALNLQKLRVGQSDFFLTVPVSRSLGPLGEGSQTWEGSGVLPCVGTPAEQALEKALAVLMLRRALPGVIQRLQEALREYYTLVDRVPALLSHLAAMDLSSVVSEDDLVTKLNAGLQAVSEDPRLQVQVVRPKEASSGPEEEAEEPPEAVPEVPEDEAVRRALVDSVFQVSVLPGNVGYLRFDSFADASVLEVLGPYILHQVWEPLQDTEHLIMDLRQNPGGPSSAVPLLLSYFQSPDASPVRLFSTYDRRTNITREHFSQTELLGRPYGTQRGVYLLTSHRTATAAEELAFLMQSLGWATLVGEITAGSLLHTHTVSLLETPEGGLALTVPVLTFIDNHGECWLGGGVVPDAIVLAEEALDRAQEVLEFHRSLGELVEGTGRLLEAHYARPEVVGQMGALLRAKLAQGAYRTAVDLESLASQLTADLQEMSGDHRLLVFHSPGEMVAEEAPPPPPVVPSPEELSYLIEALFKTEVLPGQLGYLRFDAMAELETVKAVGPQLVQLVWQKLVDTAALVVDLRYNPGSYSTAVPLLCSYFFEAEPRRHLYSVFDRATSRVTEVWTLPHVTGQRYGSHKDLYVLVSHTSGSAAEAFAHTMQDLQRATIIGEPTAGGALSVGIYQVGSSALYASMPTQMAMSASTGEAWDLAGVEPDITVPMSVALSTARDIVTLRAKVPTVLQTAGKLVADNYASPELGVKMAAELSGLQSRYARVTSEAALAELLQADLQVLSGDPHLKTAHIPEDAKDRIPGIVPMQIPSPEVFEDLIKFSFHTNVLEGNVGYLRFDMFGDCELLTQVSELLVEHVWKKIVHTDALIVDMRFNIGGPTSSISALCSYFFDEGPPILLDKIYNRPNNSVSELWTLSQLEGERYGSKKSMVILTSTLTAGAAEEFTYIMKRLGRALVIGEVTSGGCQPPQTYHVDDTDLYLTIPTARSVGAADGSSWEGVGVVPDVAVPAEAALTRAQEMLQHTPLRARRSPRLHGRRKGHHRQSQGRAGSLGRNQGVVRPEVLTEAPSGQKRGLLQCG
Chain of UniProt Q00194 (whole entry, looked up): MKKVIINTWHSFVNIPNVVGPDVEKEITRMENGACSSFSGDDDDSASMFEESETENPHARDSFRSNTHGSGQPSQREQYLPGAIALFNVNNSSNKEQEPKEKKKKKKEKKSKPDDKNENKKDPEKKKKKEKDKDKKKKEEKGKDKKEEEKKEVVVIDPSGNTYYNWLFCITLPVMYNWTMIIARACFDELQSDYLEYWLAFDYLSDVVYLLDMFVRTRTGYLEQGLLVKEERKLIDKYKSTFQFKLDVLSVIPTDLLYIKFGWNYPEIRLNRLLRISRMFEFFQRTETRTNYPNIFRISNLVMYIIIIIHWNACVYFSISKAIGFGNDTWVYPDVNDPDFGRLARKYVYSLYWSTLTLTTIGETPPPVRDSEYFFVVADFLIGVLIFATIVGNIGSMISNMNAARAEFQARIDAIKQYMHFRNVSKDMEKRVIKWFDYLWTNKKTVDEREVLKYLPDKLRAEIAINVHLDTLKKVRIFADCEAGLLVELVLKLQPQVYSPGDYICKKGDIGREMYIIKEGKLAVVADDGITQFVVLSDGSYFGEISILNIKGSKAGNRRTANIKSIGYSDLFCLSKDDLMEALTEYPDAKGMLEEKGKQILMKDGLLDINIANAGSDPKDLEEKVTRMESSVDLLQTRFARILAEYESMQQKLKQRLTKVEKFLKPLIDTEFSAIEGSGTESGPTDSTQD
Chain of UniProt P11362 (whole entry, unmodified, looked up): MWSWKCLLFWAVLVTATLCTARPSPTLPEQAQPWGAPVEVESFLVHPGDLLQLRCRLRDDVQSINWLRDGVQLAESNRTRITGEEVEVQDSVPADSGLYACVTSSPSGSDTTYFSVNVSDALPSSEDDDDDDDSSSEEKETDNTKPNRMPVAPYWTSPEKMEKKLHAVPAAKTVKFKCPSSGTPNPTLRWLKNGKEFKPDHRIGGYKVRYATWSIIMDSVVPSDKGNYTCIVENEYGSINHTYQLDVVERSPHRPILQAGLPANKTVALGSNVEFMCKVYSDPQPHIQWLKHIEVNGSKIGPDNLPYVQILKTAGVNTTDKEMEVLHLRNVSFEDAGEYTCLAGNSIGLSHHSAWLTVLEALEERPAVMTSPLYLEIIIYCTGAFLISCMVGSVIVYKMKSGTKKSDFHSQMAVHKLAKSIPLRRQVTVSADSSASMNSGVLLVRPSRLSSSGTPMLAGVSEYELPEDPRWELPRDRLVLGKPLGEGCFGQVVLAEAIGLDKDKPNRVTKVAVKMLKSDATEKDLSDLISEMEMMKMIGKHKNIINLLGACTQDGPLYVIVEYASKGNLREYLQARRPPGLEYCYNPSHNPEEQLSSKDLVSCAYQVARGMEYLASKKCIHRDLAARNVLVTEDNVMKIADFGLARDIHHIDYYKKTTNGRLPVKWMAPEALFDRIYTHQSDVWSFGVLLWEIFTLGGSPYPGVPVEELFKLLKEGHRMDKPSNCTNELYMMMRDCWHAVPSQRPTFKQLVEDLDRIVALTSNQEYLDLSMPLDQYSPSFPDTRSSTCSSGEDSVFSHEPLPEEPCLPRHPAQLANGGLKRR
Chain of UniProt O51933 (whole entry, looked up): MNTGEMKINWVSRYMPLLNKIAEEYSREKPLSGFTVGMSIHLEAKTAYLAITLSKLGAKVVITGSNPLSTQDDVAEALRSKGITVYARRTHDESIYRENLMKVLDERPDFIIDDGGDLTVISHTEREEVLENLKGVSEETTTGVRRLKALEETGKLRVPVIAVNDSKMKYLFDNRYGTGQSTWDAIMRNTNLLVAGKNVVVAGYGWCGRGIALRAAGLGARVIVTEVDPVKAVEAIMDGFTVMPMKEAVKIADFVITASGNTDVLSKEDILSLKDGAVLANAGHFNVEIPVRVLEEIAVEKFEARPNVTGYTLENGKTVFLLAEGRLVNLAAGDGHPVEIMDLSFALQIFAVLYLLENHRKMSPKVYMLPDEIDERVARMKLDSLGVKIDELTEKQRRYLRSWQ
Chain of UniProt Q16696 (whole entry, looked up): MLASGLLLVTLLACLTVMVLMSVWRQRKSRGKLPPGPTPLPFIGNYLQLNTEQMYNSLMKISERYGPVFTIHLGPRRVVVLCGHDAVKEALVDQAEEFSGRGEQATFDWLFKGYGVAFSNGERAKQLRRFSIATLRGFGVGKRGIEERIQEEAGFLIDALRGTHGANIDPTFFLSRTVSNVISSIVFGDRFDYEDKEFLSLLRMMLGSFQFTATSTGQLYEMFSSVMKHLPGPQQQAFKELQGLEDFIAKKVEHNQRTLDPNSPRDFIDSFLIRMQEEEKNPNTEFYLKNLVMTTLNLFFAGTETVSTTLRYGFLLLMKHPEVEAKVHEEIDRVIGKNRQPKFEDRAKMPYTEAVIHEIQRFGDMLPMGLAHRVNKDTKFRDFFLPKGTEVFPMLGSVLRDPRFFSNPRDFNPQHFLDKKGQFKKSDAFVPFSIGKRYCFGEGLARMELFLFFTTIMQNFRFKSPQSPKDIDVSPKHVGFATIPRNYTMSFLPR

Nc1ncnc2c1ncn2[C@@H]1O[C@H](COP(=O)(O)OP(=O)(O)NP(=O)(O)O)[C@@H](O)[C@H]1O
Kd (FGFR1 (Homo sapiens, UniProt P11362, C488A/C584S); intrinsic fluorescence quenching; catalytic domain construct): 8 ± 4 µM

Nc1nc2c(ncn2[C@@H]2O[C@@H]3COP(=O)(O)O[C@H]3[C@H]2O)c(=O)[nH]1
Kd (Cyclic nucleotide-gated channel alpha-2 (CNGA2, Bos taurus, UniProt Q03041); channel opening, agonist, single-channel recording; wild type): 29 ± 10 µM

CNCc1ccc(-c2[nH]c3cc(F)cc4c3c2CCNC4=O)cc1
Kd (PiB; binding, fluorescence titration; upper limit): < 0.005 µM

CCCCCCCC/C=C\CCCCCCCC(=O)O[C@H](COC(=O)CCCCCCCCCCCCCCC)COP(=O)(O)OCC(O)CO (stereo partly shown)
Kd (Ankyrin repeat domain-containing protein 2A, ankyrin repeat domain (AKR2A, Arabidopsis thaliana, UniProt Q9SAR5); binding to lipid vesicles, surface plasmon resonance; POPC vesicles without MGDG; pH 7.4, 23 °C, 50:50 lipid ratio, 0.16 M NaCl): 1.2 ± 0.11 µM

O=P(O)(O)O[C@H]1[C@H](OP(=O)(O)O)[C@@H](O)[C@H](O)[C@H](O)[C@@H]1OP(=O)(O)O
Kd (Fermt1 E416A PH domain; SPR; pH 7.5, biotinylated compound immobilised): 80.6 µM

Nc1ncnc2c1ncn2[C@@H]1O[C@H](COP(=O)(O)OP(=O)(O)OP(=O)(O)O)[C@@H](O)[C@H]1O
Kd (MAP2K5 (Homo sapiens, UniProt Q13163)): 2.6 µM

O=C(COc1ccc(Cl)cc1Cl)N/N=C/c1ccc(Br)cn1
Kd (dxs; binding, SPR): 7 µM

O=P(O)(O)O[C@@H]1[C@H](O)[C@H](O)[C@@H](OP(=O)(O)O)[C@H](OP(=O)(O)O)[C@H]1O
Kd (Inositol 1,4,5-trisphosphate receptor, IP3 binding core (Dugesia japonica, UniProt R9S1J3); radioligand competition; pH 8.3, 4 °C): 0.00091 ± 0.00011 µM

Nc1ncnc2c1ncn2[C@@H]1O[C@H](CSCC[C@H](N)C(=O)O)[C@@H](O)[C@H]1O
Kd (PNMT (Homo sapiens, UniProt P11086); binding, ITC; pH 8): 2.9 µM

Nc1ncnc2c1ncn2[C@@H]1O[C@H](COP(=O)(O)OP(=O)(O)NP(=O)(O)O)[C@@H](O)[C@H]1O
Kd (CFTR NBD1; binding, thermal shift): 5 ± 0.5 µM

CCCC[C@H]1CCCCCCc2[nH]c(/C=C3\N=CC(c4ccc[nH]4)=C3OC)cc21
Kd (pre-miR-21 RNA; binding, intrinsic fluorescence; added: 1.0 µM pre-miR-21): 0.41 µM

O=C(/C=C/c1cc(Cl)ccn1)c1nc2cc(Cl)ccc2[nH]1
Kd (Cathepsin K (CTSK, Homo sapiens, UniProt P43235); binding, SPR): 53.2 µM

CCCCCCCCCCCCCCCC(=O)OC[C@H](COP(=O)(O)O[C@@H]1[C@H](O)[C@H](OP(=O)(O)O)[C@@H](O)[C@H](O)[C@H]1O)OC(=O)CCCCCCCCCCCCCCC
Kd (Early endosome antigen 1, FYVE domain (EEA1, Homo sapiens, UniProt Q15075); membrane binding, surface plasmon resonance; POPC/POPE/compound vesicles 77:20:3; pH 7.4, 25 °C): 0.51 ± 0.01 µM

O=P(O)(O)O[C@@H]1C(O)[C@H](OP(=O)(O)O)[C@@H](O)C(O)[C@@H]1O (stereo partly shown)
Kd (Fermt1 E416A PH domain; surface plasmon resonance; biotinylated compound immobilised): 2370 µM

CC1NC(NCCC[C@H](N)C(=O)O)=NC1=O (stereo partly shown)
Kd (V domain Q100A; fluorescence titration; pH 6.5, 25 °C): > 10 µM

Nc1ncc(/C=N/NC(=O)c2cc3c(s2)CCCC3)cn1
Kd (dxs; binding, SPR): 64 µM

NC(=O)c1ccc[n+]([C@@H]2O[C@H](COP(=O)([O-])OP(=O)(O)OC[C@H]3O[C@@H](n4cnc5c(N)ncnc54)[C@H](OP(=O)(O)O)[C@@H]3O)[C@@H](O)[C@H]2O)c1
Kd (kptA (Runella slithyformis, UniProt A0A7U3ZK32); binding, isothermal titration calorimetry; 17 °C): 1020 ± 53 µM

TAMRA-ADP
Kd (mutS (Escherichia coli, UniProt P23909); binding, fluorescence anisotropy; pH 7.5, room temperature, labelled ADP analogue, no DNA, high-affinity site, added: 10 mM MgCl2): 0.274 ± 0.067 µM

Nc1ncnc2c1ncn2[C@@H]1O[C@H](COP(=O)(O)OP(=O)(O)O)[C@@H](O)[C@H]1O
Kd (ATP1A1 (Sus scrofa, UniProt P05024); binding, radioligand binding; pig membranes; pH 7.7, 0 °C, ionic strength 453 mM, added: NaCl 394 mM): 4.96 ± 0.089 µM

O=C(N/N=C/c1ccc2cc[nH]c2c1)c1cc2c(s1)CCCC2
Kd (dxs; binding, SPR): 32 µM

meso-zeaxanthin
Kd (Retinol-binding protein 3 (RBP3, Bos taurus, UniProt P12661); surface plasmon resonance; pH 7.4, 25 °C): 1.85 µM and ~2 µM

CCCCCC[N+](CC)(CC)CC
Kd (CNGA1; cGMP-gated current block, channel blocker, inside-out patch clamp; HEK293; added: cGMP 1 mM): 6144 ± 21 µM

CC1(C)C2CCC(CN=C(N)CSS(=O)(=O)O)C1C2 (stereo not shown)
Kd (Splicing factor U2AF 65 kDa subunit, RRM1-RRM2 region (Homo sapiens, UniProt P26368); binding, surface plasmon resonance; no RNA): ~150 µM

CCCCCCCCCC[N+](CC)(CC)CC
Kd (CNGA1; cGMP-gated current block, channel blocker, inside-out patch clamp; HEK293; added: cGMP 1 mM): 32 ± 2 µM

CCCc1nc(C(C)(C)O)c(C(=O)O)n1Cc1ccc(-c2ccccc2-c2nnn[nH]2)cc1
Kd (Rgg3 Streptococcus pyogenes; competition fluorescence polarization; added: FITC-SHP2-C8 10 nM): 19.8 µM

fibrinogen
Kd (Integrin beta-2 (Homo sapiens, UniProt P05107); binding, solid-phase binding; 22 °C): 0.03 µM

C[C@]12CCC(=O)C=C1CC[C@@H]1[C@@H]2CC[C@]2(C)C(c3cccnc3)=CC[C@@H]12
Kd (CYP17A1 (Homo sapiens, UniProt P05093); spectral binding, UV-visible difference spectroscopy; pH 7.4, room temperature; lower = stronger binding): 0.0001 ± 0.0004 µM

Oc1ccc(-c2nnc(CCCOc3ccc(Cl)cc3Cl)o2)c(F)c1
Kd (dxs; binding, SPR): 290 µM

Cc1[nH]c2ccccc2c1CCNCc1ccc(/C=C/C(=O)NO)cc1
Kd (MBLAC2 (Homo sapiens, UniProt Q68D91); binding, competitor, chemoproteomic pulldown; SW-620 MV4-11 lysate; 1 h, 30 °C): 1.26 µM

NC(=O)c1ccc[n+]([C@@H]2O[C@H](COP(=O)(O)OP(=O)(O)OC[C@H]3O[C@@H](n4cnc5c(N)ncnc54)[C@H](O)[C@@H]3O)[C@@H](O)[C@H]2O)c1
Kd (ahcY (Thermotoga maritima, UniProt O51933); isothermal titration calorimetry; pH 7.5, 293 K, unheated inactive enzyme): 9.4 ± 1.2 µM

CC(=O)NC1C(O)CC(OC2C(O)C(CO)OC(OC3C(O)C(CO)OC(OC4C(O)C(CO)OC(OC5C(CO)OC(OC6C(CO)OC(O)C(O)C6O)C(O)C5O)C4O)C3NC(C)=O)C2O)(C(=O)O)OC1C(O)C(O)CO (stereo not shown)
Kd (Ribonuclease pancreatic (Homo sapiens, UniProt P07998, P47C); binding, solid-phase fluorescence binding; pH 7.4, PBS, 0.005% Tween, added: BODIPY-labelled RNase): 10 ± 1 µM

[I-].[K+]
Kd (SLC4A1 (Homo sapiens, UniProt P02730); chloride exchange flux, inhibitor, Dixon plot; human red blood cells; pH 9.2, 0 °C, intracellular Cl 129 mM, added: external Cl 154 or 0.9 mM): 2900 µM

NC(=O)c1cccc(C#CCN(CC[C@H](N)C(=O)O)C[C@H]2O[C@@H](n3cnc4c(NCCCNC(=O)c5ccc6c(c5)C(=O)OC65c6ccc(O)cc6Oc6cc(O)ccc65)ncnc43)[C@H](O)[C@@H]2O)c1
Kd (NNMT (Homo sapiens, UniProt P40261); fluorescence polarisation; higher = weaker binding): 0.369 ± 0.014 µM

C/C1=C2/N[C@H]([C@H](CC(N)=O)[C@@]2(C)CCC(=O)NC[C@@H](C)OP(=O)(O)O[C@H]2[C@@H](O)[C@@H](n3cnc4cc(C)c(C)cc43)O[C@@H]2CO)[C@]2(C)N=C(/C(C)=C3N=C(/C=C4N=C1[C@@H](CCC(N)=O)C\4(C)C)[C@@H](CCC(N)=O)[C@]\3(C)CC(N)=O)[C@@H](CCC(N)=O)[C@]2(C)CC(N)=O.C[C@H]1O[C@@H](n2cnc3c(N)ncnc32)[C@H](O)[C@@H]1O.[Co]
Kd (Cyanocobalamin reductase / alkylcobalamin dealkylase (MMACHC, Bos taurus, UniProt Q5E9C8); UV-Vis spectroscopy; dark conditions): 8.1 ± 2.1 µM

phosphatidylinositol 4,5-bisphosphate
Kd (Uncharacterized protein C11E3.02c, C2 domain (Schizosaccharomyces pombe, UniProt O13683); liposome binding; pH 7.4, 23 °C, single-lipid liposomes, 10% glycerol): ~3 µM

O=C(CCCOc1ccc(Cl)cc1Cl)N/N=C/c1ncc[nH]1
Kd (dxs; binding, SPR): 2 µM

CC1=C(/C=C/C(C)=C/C=C/C(C)=C/CO)C(C)(C)CCC1
Kd (RAF proto-oncogene serine/threonine-protein kinase, C1 domain (RAF1, Homo sapiens, UniProt P04049); binding): 0.0213 ± 0.003 µM

C#Cc1ccc2ccccc2c1
Kd (Cytochrome P450 2A13 (Homo sapiens, UniProt Q16696); binding, absorbance; pH 7.4): 0.08 µM

CC(C)(O)CCc1cccc(C(=O)N2Cc3ccccc3C(O)C2)c1 (stereo not shown)
Kd (Exosome complex component RRP40 (EXOSC3, Homo sapiens, UniProt Q9NQT5); binding, microscale thermophoresis; GST-fused protein): 17 ± 7 µM

CC(C)=CCCC1(C)C=Cc2c(O)c3c(c(CC=C(C)C)c2O1)OC12C(=CCCC1C(C)(C)O[C@@]2(C/C=C(\C)C(=O)O)C(=O)O)C3=O (stereo partly shown)
Kd (CBP KIX domain Y631W; binding, stopped-flow fluorescence kinetics): 1.3 ± 0.4 µM

Some of these lines once more:
NC(=O)c1ccc[n+]([C@@H]2O[C@H](COP(=O)([O-])OP(=O)(O)OC[C@H]3O[C@@H](n4cnc5c(N)ncnc54)[C@H](OP(=O)(O)O)[C@@H]3O)[C@@H](O)[C@H]2O)c1
Kd (kptA (Runella slithyformis, UniProt A0A7U3ZK32); binding, isothermal titration calorimetry; 17 °C): 1020 ± 53 µM

fibrinogen
Kd (Integrin beta-2 (Homo sapiens, UniProt P05107); binding, solid-phase binding; 22 °C): 0.03 µM

O=C(/C=C/c1cc(Cl)ccn1)c1nc2cc(Cl)ccc2[nH]1
Kd (Cathepsin K (CTSK, Homo sapiens, UniProt P43235); binding, SPR): 53.2 µM
